Experimental data pooled from the literature.
A part holds a random share of what one study measured. Substitutions count along the parent as printed.

Study 1 — target: inorganic phosphate, free oxyanion; technique: microfluidic competitive inhibition; matrix: in vitro, cell-free expressed; concentration: not given; direction: lower = stronger binding
Setting: derived from inhibition constants, unchanged parent 615000 nM
Starting sequence: PafA, mature enzyme, eGFP fusion (Elizabethkingia meningoseptica, UniProt Q9KJX5); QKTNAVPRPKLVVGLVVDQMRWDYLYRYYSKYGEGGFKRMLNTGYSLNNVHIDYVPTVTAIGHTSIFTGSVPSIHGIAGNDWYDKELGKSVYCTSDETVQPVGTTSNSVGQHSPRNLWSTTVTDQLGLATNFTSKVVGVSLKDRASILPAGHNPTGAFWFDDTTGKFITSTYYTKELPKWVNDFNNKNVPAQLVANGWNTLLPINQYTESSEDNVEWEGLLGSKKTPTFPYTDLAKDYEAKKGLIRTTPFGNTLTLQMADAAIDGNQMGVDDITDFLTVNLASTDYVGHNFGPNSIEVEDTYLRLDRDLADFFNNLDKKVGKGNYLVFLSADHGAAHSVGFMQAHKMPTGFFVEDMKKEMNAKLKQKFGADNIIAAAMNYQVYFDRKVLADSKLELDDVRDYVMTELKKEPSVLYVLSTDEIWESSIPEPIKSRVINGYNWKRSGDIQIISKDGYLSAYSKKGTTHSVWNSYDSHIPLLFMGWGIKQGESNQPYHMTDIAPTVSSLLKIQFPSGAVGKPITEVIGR
`P230V`: “phosphate dissociation constant” 567 µM.
Under “phosphate dissociation constant”, `L254V` is recorded as 646 µM.
`R115V`: “phosphate dissociation constant” 698 µM.

Study 2 — target: CCNE1, cyclin fold, Cln2 fusion (human); technique: yeast growth competition, sequencing; matrix: yeast; setting: strong parent motif; reference: not given; direction: higher = stronger binding
Starting sequence: RBL1 docking peptide (human); GSAKRRLFGEDPP
For `S2E`, “normalised enrichment score” read 5.23.
Under “normalised enrichment score”, `L7D` is recorded as -0.51.
For `K4R`, “normalised enrichment score” read 7.38.
`D11L` — result for “normalised enrichment score”: 4.68.
`A3S` — result for “normalised enrichment score”: 1.7.
Under “normalised enrichment score”, `P12V` is recorded as 6.42.
`G9L` — result for “normalised enrichment score”: 6.71.
`S2D` — result for “normalised enrichment score”: 5.11.

Study 3 — technique: aptamer microarray, sandwich; molecule type: DNA with 2'F-ANA; matrix: in vitro; concentration: 200 nM; together with: Cy3 exosite-II aptamer, 400 nM; direction: higher = stronger binding; oligonucleotide: GGTTGGTGTGGTTGG
Target: Prothrombin, mature alpha-thrombin (F2, Homo sapiens, UniProt P00734)
Setting: whole 15-mer aptamer, many near background
`2'F-ANA at 4 8 9 11 12 14 15`: “mean fluorescence intensity” 95.5 a.u.
`2'F-ANA at 2 3 6 7 11 12 13 14`: “mean fluorescence intensity” 336 a.u.
For `2'F-ANA at 1 2 3 4 6 8 10 13 14 15`, “mean fluorescence intensity” read 58.2 a.u.
`2'F-ANA at 2 6 8 9 11 13` — result for “mean fluorescence intensity”: 308 a.u.
For `2'F-ANA at 3 4 6 8 9 11 15`, “mean fluorescence intensity” read 482 a.u.
`2'F-ANA at 1 3 4 5 7 11 12` — result for “mean fluorescence intensity”: 107 a.u.
`2'F-ANA at 2 3 8 13 14 15` — result for “mean fluorescence intensity”: 452 a.u.
Under “mean fluorescence intensity”, `2'F-ANA at 1 2 5 6 7 9 11 12 15` is recorded as 108 a.u.

Study 4 — effect on: phage display binding; technique: phage display panning NGS; molecule type: peptide; reference: OGT-panned over input library
Target: UDP-N-acetylglucosamine--peptide N-acetylglucosaminyltransferase 110 kDa subunit (OGT, Homo sapiens, UniProt O15294)
Chain of UniProt O15294 (whole entry, looked up): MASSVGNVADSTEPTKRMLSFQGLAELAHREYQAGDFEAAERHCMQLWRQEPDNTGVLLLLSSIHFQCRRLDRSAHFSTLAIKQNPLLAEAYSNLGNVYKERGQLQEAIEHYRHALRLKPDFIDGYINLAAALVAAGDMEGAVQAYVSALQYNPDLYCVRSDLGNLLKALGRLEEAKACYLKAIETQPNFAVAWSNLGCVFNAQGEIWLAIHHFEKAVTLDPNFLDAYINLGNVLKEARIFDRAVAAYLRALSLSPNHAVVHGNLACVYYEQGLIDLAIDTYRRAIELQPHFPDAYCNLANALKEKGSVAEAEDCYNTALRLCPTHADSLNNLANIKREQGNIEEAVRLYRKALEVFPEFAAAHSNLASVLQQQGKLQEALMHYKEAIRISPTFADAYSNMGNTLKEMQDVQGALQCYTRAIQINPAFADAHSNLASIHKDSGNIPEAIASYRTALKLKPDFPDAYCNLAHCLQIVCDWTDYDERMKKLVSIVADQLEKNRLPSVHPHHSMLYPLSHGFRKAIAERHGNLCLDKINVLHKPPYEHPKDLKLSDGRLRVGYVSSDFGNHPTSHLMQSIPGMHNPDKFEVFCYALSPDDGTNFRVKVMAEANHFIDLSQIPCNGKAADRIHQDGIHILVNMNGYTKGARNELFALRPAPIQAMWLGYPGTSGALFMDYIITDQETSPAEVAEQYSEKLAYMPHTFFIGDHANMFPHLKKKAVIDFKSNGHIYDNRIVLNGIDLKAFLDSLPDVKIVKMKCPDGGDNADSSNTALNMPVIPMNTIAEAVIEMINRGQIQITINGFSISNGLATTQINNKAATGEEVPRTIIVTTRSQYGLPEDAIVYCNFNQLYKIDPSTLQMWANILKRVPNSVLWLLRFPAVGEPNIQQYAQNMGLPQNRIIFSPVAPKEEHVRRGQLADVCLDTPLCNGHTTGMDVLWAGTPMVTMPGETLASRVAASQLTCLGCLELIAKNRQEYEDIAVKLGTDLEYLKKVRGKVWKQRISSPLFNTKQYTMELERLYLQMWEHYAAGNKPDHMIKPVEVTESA
Under “log2 fold enrichment”, `WPSVMHHHHVQQTAA` is recorded as 4.21.
`QAHRWPFHFKQHSFW`: “log2 fold enrichment” 3.55.
For `SDDLYAPQYQIFFNA`, “log2 fold enrichment” read 3.06.

Some of these lines once more (study 2):
`A3S` — result for “normalised enrichment score”: 1.7.
Under “normalised enrichment score”, `P12V` is recorded as 6.42.
`G9L` — result for “normalised enrichment score”: 6.71.
